Measurements collected from several papers.
± marks the error that the study gave.

SMILES	test	system	conditions	tissue uptake
O=C(NCC1OC2CCC=CCCC2O1)c1ccc(COCCOCCOCC[18F])cc1 (centres unmarked)		female BALB/c nude mice, bone	intravenous, 60 min	2.05 ± 0.12 %ID/g
O=C([O-])CN1CCN(CC(=O)[O-])CCN(CC(=O)[O-])CCN(CC(=O)[O-])CC1.[64Cu+2]		healthy athymic nude mice, lung	intravenous, 15 min	2.61 %ID/g
CN1C(=O)[C@@H](Cc2ccc(O)c(I)c2)NC(=O)CNC(=O)[C@H](Cc2ccc3ccccc3c2)NC(=O)[C@H](CCCNC(=N)N)NC(=O)[C@H]1CCCNC(=O)c1ccc(CNC(=O)CN2CCN(CC(=O)O)CCN(CC(=O)O)CCN(CC(=O)O)CC2)cc1 [lutetium-177 labelled]	item: 177Lu radioactivity	female CB-17 SCID mice, Daudi xenograft, pancreas	intravenous, 0.16 nmol per mouse, 96 h	0.07 ± 0.01 %ID/g
CCCC[C@H](NC(=O)CN1CCC(NC(=O)CN2CCN(CC(=O)O)CCN(CC(=O)O)CCN(CC(=O)O)CC2)CC1)C(=O)N[C@H]1CC(=O)NCCCC[C@@H](C(N)=O)NC(=O)[C@H](Cc2c[nH]c3ccccc23)NC(=O)[C@H](CCCNC(=N)N)NC(=O)[C@@H](Cc2ccccc2)NC(=O)[C@H](Cc2c[nH]cn2)NC1=O [gallium-68 labelled]		C57BL/6J mice male B16-F10 tumour, stomach	1 h post injection, unblocked	0.5 ± 0.2 %ID/g
CCCC[C@H](NC(=O)CNC(=O)CNC(=O)CN1CCN(CC(=O)O)CCN(CC(=O)O)CCN(CC(=O)O)CC1)C(=O)N[C@H]1CC(=O)NCCCC[C@@H](C(N)=O)NC(=O)[C@H](Cc2c[nH]c3ccccc23)NC(=O)[C@H](CCCNC(=N)N)NC(=O)[C@@H](Cc2ccccc2)NC(=O)[C@H](Cc2c[nH]cn2)NC1=O [gallium-67 labelled]		female C57 mice, B16/F1 melanoma, liver	intravenous, 0.037 MBq, 24 h	0.54 ± 0.14 %ID/g
NC12CNCCNCC(NCc3ccc(CNC(=O)CCCC(=O)NCc4ccc(-c5nncnn5)cc4)cc3)(CNCCNC1)CNCCNC2.[64Cu+2]		athymic nude mice SW1222 xenograft, lung	12 h post injection, 24 h accumulation interval, together with: huA33-TCO pretargeting	1.24 ± 0.22 %ID/g
O=C([O-])c1cccc(CN(CCN(Cc2cn(Cc3ccccc3)nn2)Cc2cccc(C(=O)[O-])n2)Cc2cn(Cc3ccccc3)nn2)n1.[64Cu+2]		healthy athymic nude mice, small intestine	intravenous, 1 h	14.3 %ID/g
CCCC[C@H](NC(=O)CNC(=O)CNC(=O)CN1CCN(CC(=O)O)CCN(CC(=O)O)CC1)C(=O)N[C@H]1CC(=O)NCCCC[C@@H](C(N)=O)NC(=O)[C@H](Cc2c[nH]c3ccccc23)NC(=O)[C@H](CCCNC(=N)N)NC(=O)[C@@H](Cc2ccccc2)NC(=O)[C@H](Cc2c[nH]cn2)NC1=O [gallium-67 labelled]		female C57 mice, B16/F1 melanoma, lung	intravenous, 0.037 MBq, 0.5 h	3.71 ± 0.25 %ID/g
CCCC[C@@H]1NC(=O)[C@@H](NC(=O)[C@H](CCC(=O)O)NC(=O)CNC(=O)CN2CCN(CC(=O)O)CCN(CC(=O)O)CCN(CC(=O)O)CC2)CCCCNC(=O)C[C@@H](C(N)=O)NC(=O)[C@H](C(C)C)NC(=O)[C@@H]2CCCN2C(=O)[C@H](CCCNC(=N)N)NC(=O)CNC(=O)[C@H](Cc2c[nH]c3ccccc23)NC(=O)[C@H](CCCNC(=N)N)NC(=O)[C@@H](Cc2ccccc2)NC(=O)[C@H](Cc2c[nH]cn2)NC(=O)[C@H](CCC(=O)O)NC1=O [gallium-67 labelled]		B16/F1 melanoma-bearing C57 mice, normal organs except kidneys	intravenous, 0.037 MBq, 2, 4, 24 h, range over time points	< 0.3 %ID/g
CC(C)[C@H](NC(=O)[C@@H]1CCCN1C(=O)[C@H](CCCNC(=N)N)NC(=O)[C@H](CS)NC(=O)[C@H](Cc1c[nH]c2ccccc12)NC(=O)[C@H](CCCNC(=N)N)NC(=O)[C@@H](Cc1ccccc1)NC(=O)[C@H](Cc1c[nH]cn1)NC(=O)[C@H](CCC(=O)O)NC(=O)[C@H](CS)NC(=O)[C@H](CS)NC(=O)CNC(=O)[C@@H]1CC(=O)N[C@@H](CCCNC(=N)N)C(=O)NCC(=O)N[C@@H](CC(=O)O)C(=O)N[C@H](Cc2ccc(O)cc2)C(=O)N1)C(N)=O [technetium-99m labelled]		C57 mice B16/F1 melanoma female, skin	iv, 2 h, together with: NDP-MSH 10 µg co-injected	1.11 ± 0.54 %ID/g
O=C([O-])CN1CCN(CC(=O)[O-])CCN(CC(=O)NCCc2ccc3c(c2)C2C=CCC2C(c2cc4c(cc2Br)OCO4)N3)CCN(CC(=O)[O-])CC1.[111In+3] (centres unmarked)		mice with Hec50 tumour xenograft, stomach	2 h, together with: G-1 5 µg blocking	0.61 ± 0.35 %ID/g

Excerpt of the above:
SMILES	test	system	conditions	tissue uptake
O=C(NCC1OC2CCC=CCCC2O1)c1ccc(COCCOCCOCC[18F])cc1 (centres unmarked)		female BALB/c nude mice, bone	intravenous, 60 min	2.05 ± 0.12 %ID/g
